Assay results collected from several papers.
Numbered parts are unrelated; each lists some results of a single study. Changes are numbered by the printed parent chain.

Sample 1 — method: RNA Bind-n-Seq; molecule type: RNA; sample: in vitro; tested at: 365 nM; relative to: no-protein control; direction: higher = stronger binding
Target: RNA binding protein fox-1 homolog 2, RRM domain, GST-SBP tag (RBFOX2, Homo sapiens, UniProt O43251-10, residues 100-194)
Setting: natural RNA segment, single round, ends assumed
Shared flanks, not repeated: GGGAGUUCUACAGUCCGACGAUC … UGGAAUUCUCGGGUGCCAA
Residues (chain): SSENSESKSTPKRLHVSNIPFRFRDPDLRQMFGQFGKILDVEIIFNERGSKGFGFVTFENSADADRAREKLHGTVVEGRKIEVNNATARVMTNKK
| Sequence | RBNS enrichment (R) |
| --- | --- |
| AUAUAUUCCUGUUUAUUUUUCUAUGUUCUGUUUUGUAGCCUUAAGAAGUGUUUCAAACAUAUCUGAAUGUAUAAAAUAAGAGUAAAUGCCCUACAUGGUGUGAUGCUGCA | 0.389 |
| CACACUUGAUGACAUUACAAAGCUAAACCAUGCCUCUUGGUAAAGCUGCUUGAUUACAAGUGCCAGGAAAACGACUGUUAUCCACUGCGUACUACAUGUUACAUGCUGCA | 0.976 |
| AGGACCACCCUCAGGAUGGUGCAGAACCCAGAAUUGUGAUUGCAGCAUGUACUGUCCUGUAGGAAAGAAAAUGUGGCUCUAGCUAUUGACCCAUACAGCUGUUGGAAUCU | 2.31 |
| CCCCUGCAUGGCAGGACCCCUGUGCUUCAGUUCUAAUAAAUCUGAAUUUGGCUGUGCAAAGUCCCCUAGCCAUGCUCGCAGGAGGGCGAUGUCCAGGGCAGCUUCUAGUC | 1.03 |
| UAUAUUACUUUCUCAAAUUAAGUUACCAAAACAAACUGAAGAGCUGAAGCAGGUCUUCCAGACCCUGCGAUCCUUUCUGUAGCAGUGAUUCUAAAGUGGCGUUUGCUGUG | 0.307 |
| UUGUGGGGAGUGCGCUCCAGGAAGAGCCACCAUCCCUGCCCCCGUUUUCCCACCGGGGAGUCUGUACAGAGAUUUUUCUACGUUUUUAUUUUUUGCCUCAGAGGGAUGGG | 0.696 |
| UACAACAGAUGGGAGGGUGAAGGGGGCAGAAUGAAAAUCGAACCAACCUUUUAGCUGUUGCAAAUCAGAAGGAGCCAGAGAAGCAGGCAGUCUCAUGCAUGAGAGGUUAC | 39.5 |
| AGCCCAGCGCAUCACUCUCGGCUUGCUGGUGCAGUUCACCAUCUCACUGGCCCUACAACUGCCUUAGAGGAGUCAGCUGUCCAGUUUUAGAUCCCAGGAGUCACAGCAGA | 0.486 |
| UCUCUUCCCUGCGCCUGUGAUGCUGGGCACUUCAUCUGAUCGGGGGCGUAGCAUCAUAGUAGUUUUUACAGCUGUGUUAUUCUUUGCGUGUAGCUAUGGAAGUUGCAUAA | 0.396 |

Sample 2 — target: CCND2, cyclin fold, Cln2 fusion (human); method: yeast growth competition, sequencing; sample: yeast; setting: weak parent motif; relative to: not given; direction: higher = stronger binding
Starting sequence: SAMHD1 docking peptide (human); ASKSRVQLFKDDP; partner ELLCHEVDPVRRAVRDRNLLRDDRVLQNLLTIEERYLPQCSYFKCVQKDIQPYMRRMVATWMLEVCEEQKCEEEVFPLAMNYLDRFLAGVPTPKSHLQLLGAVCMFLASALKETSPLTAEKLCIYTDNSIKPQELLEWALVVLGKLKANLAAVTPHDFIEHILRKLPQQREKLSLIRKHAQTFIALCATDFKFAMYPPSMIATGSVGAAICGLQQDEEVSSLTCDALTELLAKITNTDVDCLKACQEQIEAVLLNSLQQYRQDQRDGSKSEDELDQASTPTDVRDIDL
| Change | normalised enrichment score |
| --- | --- |
| F9I | 0.254 |
| D12F | -0.14 |
| S4T | 0.414 |
| R5H | 0.0914 |
| K3W | 0.327 |
| R5I | 0.551 |

Sample 3 — method: universal PBM; molecule type: double-stranded DNA, one strand shown; sample: in vitro; tested at: not given; direction: higher = stronger binding
Target: Sal-like protein 4, full length isoform B (SALL4, Homo sapiens, UniProt Q9UJQ4-2, residues 1-616)
Setting: 8-mer, flanks averaged, mean of replicates
| Sequence | E-score |
| --- | --- |
| AAAGATGT | 0.201 |
| GGATGGAA | -0.0948 |
| CAATTCCA | -0.00809 |
| AAATCAAT | 0.319 |
| ACGCAAAC | -0.151 |
| CGAACAAC | 0.212 |
| GCCTAACC | -0.133 |
| GCATAAAA | 0.263 |
| ATCCTGAC | -0.104 |

Single results of other studies
| Substance | target | test | test system | conditions | scale | endpoint | value |
| --- | --- | --- | --- | --- | --- | --- | --- |
| PhoQ, residues 284 288 289 292 302 303 GASLAW | PhoP, residues 12 14 15 18 19 SYFRT (Escherichia coli, UniProt P23836) | Sort-seq, measured: YFP reporter | E. coli | PhoQ-PhoP variant library, added: 10 µM Mg2+ | relative to: high Mg2+ state, higher = stronger signaling | fold induction | 0.738 |

Excerpt of the above (sample 1):
| Sequence | RBNS enrichment (R) |
| --- | --- |
| AGCCCAGCGCAUCACUCUCGGCUUGCUGGUGCAGUUCACCAUCUCACUGGCCCUACAACUGCCUUAGAGGAGUCAGCUGUCCAGUUUUAGAUCCCAGGAGUCACAGCAGA | 0.486 |
| UAUAUUACUUUCUCAAAUUAAGUUACCAAAACAAACUGAAGAGCUGAAGCAGGUCUUCCAGACCCUGCGAUCCUUUCUGUAGCAGUGAUUCUAAAGUGGCGUUUGCUGUG | 0.307 |
| CCCCUGCAUGGCAGGACCCCUGUGCUUCAGUUCUAAUAAAUCUGAAUUUGGCUGUGCAAAGUCCCCUAGCCAUGCUCGCAGGAGGGCGAUGUCCAGGGCAGCUUCUAGUC | 1.03 |
| AUAUAUUCCUGUUUAUUUUUCUAUGUUCUGUUUUGUAGCCUUAAGAAGUGUUUCAAACAUAUCUGAAUGUAUAAAAUAAGAGUAAAUGCCCUACAUGGUGUGAUGCUGCA | 0.389 |
